Published values pooled from the literature.
Every numbered part comes from another study and shows a few of its results, in no order. Several values in a cell are separate wells, animals, samples, runs or records.
Sequence of UniProt Q7KZI7 (whole entry, looked up): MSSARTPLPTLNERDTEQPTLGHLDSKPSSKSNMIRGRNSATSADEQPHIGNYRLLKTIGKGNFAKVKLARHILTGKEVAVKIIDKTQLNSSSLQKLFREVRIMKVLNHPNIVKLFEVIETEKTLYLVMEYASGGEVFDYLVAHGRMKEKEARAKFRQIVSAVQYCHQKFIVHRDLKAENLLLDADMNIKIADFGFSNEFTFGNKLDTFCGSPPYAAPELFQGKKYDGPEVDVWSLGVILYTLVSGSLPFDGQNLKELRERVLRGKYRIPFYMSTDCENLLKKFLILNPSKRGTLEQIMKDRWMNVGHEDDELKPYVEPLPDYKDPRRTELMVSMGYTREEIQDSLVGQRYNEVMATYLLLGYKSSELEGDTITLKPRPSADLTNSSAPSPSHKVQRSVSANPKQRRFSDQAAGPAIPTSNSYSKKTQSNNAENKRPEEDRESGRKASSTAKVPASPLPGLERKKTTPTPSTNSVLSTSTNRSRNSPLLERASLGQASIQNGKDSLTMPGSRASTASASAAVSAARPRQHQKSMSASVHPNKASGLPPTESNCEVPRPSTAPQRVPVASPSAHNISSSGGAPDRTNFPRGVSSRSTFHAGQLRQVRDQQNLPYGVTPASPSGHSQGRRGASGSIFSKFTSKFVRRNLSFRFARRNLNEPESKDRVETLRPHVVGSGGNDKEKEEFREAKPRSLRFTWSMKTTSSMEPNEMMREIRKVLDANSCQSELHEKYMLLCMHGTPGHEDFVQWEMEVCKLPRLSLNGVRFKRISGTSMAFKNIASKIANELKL
Sequence of UniProt Q9Y5S2 (whole entry, looked up): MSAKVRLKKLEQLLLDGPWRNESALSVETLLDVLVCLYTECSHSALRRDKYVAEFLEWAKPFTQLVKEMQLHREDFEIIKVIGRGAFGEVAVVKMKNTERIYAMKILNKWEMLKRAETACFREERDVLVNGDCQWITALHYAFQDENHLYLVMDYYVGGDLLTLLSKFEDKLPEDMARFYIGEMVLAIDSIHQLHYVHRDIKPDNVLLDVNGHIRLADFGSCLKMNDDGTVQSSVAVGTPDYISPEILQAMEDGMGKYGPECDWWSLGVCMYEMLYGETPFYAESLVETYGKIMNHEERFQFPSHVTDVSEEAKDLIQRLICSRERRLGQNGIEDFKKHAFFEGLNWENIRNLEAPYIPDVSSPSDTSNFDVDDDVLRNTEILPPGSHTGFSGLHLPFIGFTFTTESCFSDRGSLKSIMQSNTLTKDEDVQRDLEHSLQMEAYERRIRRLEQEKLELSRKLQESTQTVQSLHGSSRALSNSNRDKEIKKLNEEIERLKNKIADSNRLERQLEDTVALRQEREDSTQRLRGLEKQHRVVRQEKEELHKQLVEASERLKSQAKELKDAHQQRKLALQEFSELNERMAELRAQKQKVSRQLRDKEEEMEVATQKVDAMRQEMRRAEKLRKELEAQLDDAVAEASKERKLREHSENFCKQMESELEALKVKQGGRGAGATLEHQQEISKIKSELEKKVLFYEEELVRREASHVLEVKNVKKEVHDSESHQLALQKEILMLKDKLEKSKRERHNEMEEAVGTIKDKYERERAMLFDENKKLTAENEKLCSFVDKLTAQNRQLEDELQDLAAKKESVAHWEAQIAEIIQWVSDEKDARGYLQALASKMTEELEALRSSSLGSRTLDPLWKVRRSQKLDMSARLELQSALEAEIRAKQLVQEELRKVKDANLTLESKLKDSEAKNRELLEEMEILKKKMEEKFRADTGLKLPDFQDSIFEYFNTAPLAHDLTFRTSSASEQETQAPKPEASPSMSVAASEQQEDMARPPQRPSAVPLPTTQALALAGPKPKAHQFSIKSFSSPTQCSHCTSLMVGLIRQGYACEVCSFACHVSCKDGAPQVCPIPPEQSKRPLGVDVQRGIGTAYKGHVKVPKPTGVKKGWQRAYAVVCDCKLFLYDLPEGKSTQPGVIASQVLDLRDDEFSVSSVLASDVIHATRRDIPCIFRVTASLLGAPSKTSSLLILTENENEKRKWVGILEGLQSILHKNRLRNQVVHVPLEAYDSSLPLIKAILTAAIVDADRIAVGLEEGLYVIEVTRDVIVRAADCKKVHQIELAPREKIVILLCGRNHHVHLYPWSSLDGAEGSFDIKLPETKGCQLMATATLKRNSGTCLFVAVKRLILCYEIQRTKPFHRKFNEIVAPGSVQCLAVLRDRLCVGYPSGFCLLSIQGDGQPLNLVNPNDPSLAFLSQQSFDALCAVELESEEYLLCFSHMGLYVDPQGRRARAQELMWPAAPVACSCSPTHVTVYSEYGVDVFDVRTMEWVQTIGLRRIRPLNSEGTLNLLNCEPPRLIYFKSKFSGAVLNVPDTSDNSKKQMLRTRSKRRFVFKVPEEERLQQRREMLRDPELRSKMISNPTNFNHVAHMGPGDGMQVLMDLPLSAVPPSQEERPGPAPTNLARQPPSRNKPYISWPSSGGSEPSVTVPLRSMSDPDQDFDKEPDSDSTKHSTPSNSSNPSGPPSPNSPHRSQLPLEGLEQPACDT
Sequence of UniProt P28482 (whole entry, looked up): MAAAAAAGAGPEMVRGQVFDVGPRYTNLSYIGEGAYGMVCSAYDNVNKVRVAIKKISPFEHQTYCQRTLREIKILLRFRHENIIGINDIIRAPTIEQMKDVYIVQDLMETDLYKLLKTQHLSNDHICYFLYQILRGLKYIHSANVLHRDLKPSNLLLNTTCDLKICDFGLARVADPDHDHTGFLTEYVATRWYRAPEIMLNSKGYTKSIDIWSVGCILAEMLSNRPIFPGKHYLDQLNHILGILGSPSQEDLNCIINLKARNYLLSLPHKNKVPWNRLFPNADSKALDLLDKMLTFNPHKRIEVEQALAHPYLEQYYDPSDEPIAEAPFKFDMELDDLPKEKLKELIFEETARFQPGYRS
Sequence of UniProt Q9HAZ1 (whole entry, looked up): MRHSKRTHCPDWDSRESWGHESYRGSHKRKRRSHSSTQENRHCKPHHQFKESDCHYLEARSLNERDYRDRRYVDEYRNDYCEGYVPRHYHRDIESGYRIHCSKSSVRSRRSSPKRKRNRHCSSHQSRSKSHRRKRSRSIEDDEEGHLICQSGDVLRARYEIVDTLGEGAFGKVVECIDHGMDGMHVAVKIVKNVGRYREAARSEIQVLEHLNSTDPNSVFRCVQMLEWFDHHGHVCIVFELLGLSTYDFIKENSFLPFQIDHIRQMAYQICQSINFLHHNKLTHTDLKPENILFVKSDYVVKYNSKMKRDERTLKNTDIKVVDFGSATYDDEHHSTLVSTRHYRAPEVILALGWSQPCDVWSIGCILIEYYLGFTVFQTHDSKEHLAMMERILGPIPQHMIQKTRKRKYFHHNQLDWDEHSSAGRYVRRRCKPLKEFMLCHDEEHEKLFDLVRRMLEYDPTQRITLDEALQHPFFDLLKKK
Sequence of UniProt Q86UE8 (whole entry, looked up): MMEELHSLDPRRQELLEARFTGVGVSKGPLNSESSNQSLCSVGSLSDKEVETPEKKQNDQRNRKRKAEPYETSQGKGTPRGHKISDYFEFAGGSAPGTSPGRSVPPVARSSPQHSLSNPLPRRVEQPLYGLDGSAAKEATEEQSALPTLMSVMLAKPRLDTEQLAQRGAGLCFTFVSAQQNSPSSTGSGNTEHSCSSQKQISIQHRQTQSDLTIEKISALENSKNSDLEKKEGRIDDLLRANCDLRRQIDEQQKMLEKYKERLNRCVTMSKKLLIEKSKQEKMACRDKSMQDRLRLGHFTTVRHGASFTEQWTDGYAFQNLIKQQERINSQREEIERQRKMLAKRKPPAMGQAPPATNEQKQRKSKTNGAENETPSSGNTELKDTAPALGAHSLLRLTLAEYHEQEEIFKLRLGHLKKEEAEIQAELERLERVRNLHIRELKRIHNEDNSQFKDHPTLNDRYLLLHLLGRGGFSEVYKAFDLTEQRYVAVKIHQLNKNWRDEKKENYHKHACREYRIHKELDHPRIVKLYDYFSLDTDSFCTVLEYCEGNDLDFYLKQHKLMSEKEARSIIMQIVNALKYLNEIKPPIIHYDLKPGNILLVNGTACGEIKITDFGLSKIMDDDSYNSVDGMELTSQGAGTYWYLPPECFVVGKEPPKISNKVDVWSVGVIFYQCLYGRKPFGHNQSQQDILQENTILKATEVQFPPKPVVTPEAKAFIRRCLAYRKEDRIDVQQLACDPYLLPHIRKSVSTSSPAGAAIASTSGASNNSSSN
Sequence of UniProt P06493 (whole entry, looked up): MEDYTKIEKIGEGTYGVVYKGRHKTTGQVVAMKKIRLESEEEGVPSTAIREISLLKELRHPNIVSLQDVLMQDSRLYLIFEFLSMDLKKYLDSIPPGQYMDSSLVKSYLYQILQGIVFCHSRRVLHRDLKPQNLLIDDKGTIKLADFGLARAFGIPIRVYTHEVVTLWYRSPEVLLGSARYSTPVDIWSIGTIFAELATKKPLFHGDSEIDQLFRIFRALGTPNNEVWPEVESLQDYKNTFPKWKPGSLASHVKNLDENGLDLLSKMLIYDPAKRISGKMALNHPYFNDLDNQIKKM
Sequence of UniProt O75914 (whole entry, looked up): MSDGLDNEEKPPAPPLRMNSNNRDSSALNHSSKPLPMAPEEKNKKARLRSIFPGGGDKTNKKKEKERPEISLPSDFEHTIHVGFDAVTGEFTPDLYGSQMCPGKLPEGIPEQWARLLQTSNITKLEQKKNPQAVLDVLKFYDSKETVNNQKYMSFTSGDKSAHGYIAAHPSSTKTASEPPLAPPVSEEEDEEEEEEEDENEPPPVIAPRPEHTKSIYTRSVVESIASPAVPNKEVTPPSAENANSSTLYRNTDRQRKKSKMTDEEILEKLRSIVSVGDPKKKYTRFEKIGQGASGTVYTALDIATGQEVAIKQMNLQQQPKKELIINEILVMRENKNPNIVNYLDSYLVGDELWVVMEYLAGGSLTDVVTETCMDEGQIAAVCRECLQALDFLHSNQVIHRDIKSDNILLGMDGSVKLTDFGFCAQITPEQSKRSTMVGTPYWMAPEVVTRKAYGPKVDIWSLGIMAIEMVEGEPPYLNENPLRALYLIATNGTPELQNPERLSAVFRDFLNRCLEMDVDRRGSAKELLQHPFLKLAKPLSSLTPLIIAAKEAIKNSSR

Series 1
Cell line: A-375
Tested at: 100 µM
Time: 36 h
| Structure (SMILES) | viability [%] |
| --- | --- |
| COc1ccc(-c2coc3cc(O)ccc3c2=O)cc1 | 96.5 |
| O=C(O)CCc1nc2ccccc2[nH]1 | 127 |
| CCN(CC)CCNC(=O)c1cc(Cl)c(N)cc1OC | 91.8 |
| COc1ccccc1N1CCN(CC(O)COc2cccc3ccccc23)CC1 (stereo not drawn) | 39.2 |
| C=CC(N)CCC(=O)O (stereo not drawn) | 101 |
| Cc1cc(/C=C/C#N)cc(C)c1Nc1ccnc(Nc2ccc(C#N)cc2)n1 | 19.9 |
| CCCCCCCCCCCCCCCCOP(=O)([O-])OCC[N+](C)(C)C | 20.8 |
| O=C1C(CC[S+]([O-])c2ccccc2)C(=O)N(c2ccccc2)N1c1ccccc1 (stereo not drawn) | 104 |

Series 2
Cell line: normal organoid sample H
Technique: CellTiter-Glo
Host: human
Sample: normal-adjacent epithelium
Tested at: 1 µM
Baseline: DMSO
| SMILES | viability |
| --- | --- |
| CC1=C(C#N)C(c2ccc3c(c2)c(NC(=O)c2ccccc2C)nn3C)C(C#N)=C(C)N1 | 91.2% |
| Cc1c(C(=O)O)cc(-c2ccc(C3CCNCC3)cc2)c2ccc(-c3ccc(C(F)(F)F)cc3)cc12 | 95.3% and 118% |
| CN1CCN(c2cnc3c(C4CCN(C(=O)c5ccc(OC(F)(F)F)cc5N)CC4)ncnc3c2)CC1 | 98.7% and 96.1% |
| CCOCCn1cc(C(=O)Nc2ccc(-n3nc(-c4cccnc4)cc3C(F)(F)F)cn2)ccc1=O | 88.8% |
| CN(C)CC#Cc1ccc(OCCCc2sc(N3CCc4cccc(C(=O)Nc5nc6ccccc6s5)c4C3)nc2C(=O)O)c(F)c1 | 139% and 111% |
| Cn1cnc2c(F)c(Nc3ccc(Br)cc3Cl)c(C(=O)NOCCO)cc21 | 63.6% and 52.7% |
| Cc1c(NC(=O)c2ccc(C(C)(C)C)cc2)cccc1-c1cn(C)c(=O)c(Nc2ccc(C(=O)N3CCOCC3)cc2)n1 | 128% and 109% |
| Cc1c(Oc2ccc(F)cc2)c(OC(C)C)nn1-c1ccc(C2CC2)cn1 | 107% and 120% |

Series 3
Host: mouse
Sample: microsomes or S9
Tested at: 2 µM
Time: 0.5 h
| SMILES | remaining compound [%] |
| --- | --- |
| CS(=O)(=O)c1nc2c(n1-c1ccccc1)C(=O)C(c1ccccc1)S(=O)(=O)N2Cc1ccccc1 (stereo not drawn) | 1.67 |
| N#Cc1ccc2ncc(/C=C/c3nc4ccccc4o3)n2c1 | 2.14 |
| CCC(=O)N(CCO)Cc1cc2cc(C)cc(C)c2[nH]c1=O | 96.5 |
| CCCn1ccnc1CN(C)Cc1cnn(-c2cccc(OC)c2)c1 | 0.0981 |
| COc1ccc(C)cc1NS(=O)(=O)c1cn(C)nc1C | 5.65 |
| CCNC(=O)c1cc(S(=O)(=O)NC(C(=O)O)C(C)C)cs1 (stereo not drawn) | > 99 |
| CCCc1noc2c1C(=O)CC(c1c(C)cc(C)cc1C)C2 (stereo not drawn) | 20.5 |
| O=C(CC1(O)C(=O)Nc2cc(Cl)cc(Cl)c21)c1ccccc1 (stereo not drawn) | 61.6 |

Series 4
Structure (SMILES): CC(C)(C)n1nc(Cc2cccc3ccccc23)c2c(N)ncnc21
Read-out: enzyme activity
Mode: inhibitor
Tested at: 0.5 µM
Baseline: control
| target | remaining activity |
| --- | --- |
| MAPK1 (Homo sapiens, UniProt P28482) | 85.9% |
| GRK4 (Homo sapiens, UniProt P32298) | 105% |
| TLK2 (Homo sapiens, UniProt Q86UE8) | 94.3% |
| KDR (Homo sapiens, UniProt P35968) | 94.9% |
| TXK (Homo sapiens, UniProt P42681) | 28.6% |
| MAPK14 (Homo sapiens, UniProt Q16539) | 63.3% |
| DCLK2 (Homo sapiens, UniProt Q8N568) | 93% |
| PLK3 (Homo sapiens, UniProt Q9H4B4) | 95% |
| PAK3 (Homo sapiens, UniProt O75914) | 92.4% |
| CAMK4 (Homo sapiens, UniProt Q16566) | 101% |
| CLK4 (Homo sapiens, UniProt Q9HAZ1) | 76.5% |
| Cyclin-dependent kinase 1, with cyclin A (CDK1, Homo sapiens, UniProt P06493) | 94.8% |
| MARK2 (Homo sapiens, UniProt Q7KZI7) | 91.4% |
| CDC42BPB (Homo sapiens, UniProt Q9Y5S2) | 96.3% |
| Myosin-IIIb (MYO3B, Homo sapiens, UniProt Q8WXR4) | 88.2% |

Some of these lines once more (series 3):
| SMILES | remaining compound [%] |
| --- | --- |
| CCCn1ccnc1CN(C)Cc1cnn(-c2cccc(OC)c2)c1 | 0.0981 |
| COc1ccc(C)cc1NS(=O)(=O)c1cn(C)nc1C | 5.65 |
| CCNC(=O)c1cc(S(=O)(=O)NC(C(=O)O)C(C)C)cs1 (stereo not drawn) | > 99 |
